# Assay results pooled from the literature.
# Compare with care: the assays were run in different laboratories. ± marks the error that the study gave.
# Cell line: MCF7
SMILES,effect on,method,medium,time,setting,IC50
COC(=O)CNc1cc(C[S+]([O-])c2ccc3ccccc3c2)ccc1OC (stereo not drawn),cell growth or viability,MTS,,48 h,,5.77 µM
CC(=O)N[C@@H]1[C@@H](OC(C)=O)[C@H](OC(C)=O)[C@@H](COC(C)=O)O[C@H]1Sc1nnc(-c2cc3ccccc3[nH]2)n1-c1ccccc1,cell growth or viability,MTT,,,,17.2 µM
COc1c(O)cc2oc3cc(O)c(CC=C(C)C)c(O)c3c(=O)c2c1CC=C(C)C,cell growth or viability,,,48 h,,10.8 µM
COc1cc2c(cc1-c1coc3c(CC=C(C)C)c(OC)c(OC)cc3c1=O)OCO2,cell growth or viability,MTT,,72 h,,19.6 µM
[NH2][Pt]1([NH2])([Cl])([O]C(=O)C(F)(F)F)[O]C(=O)C2(CC(=O)C2)C(=O)[O]1,cell growth or viability,MTT,,,,22.6 µM
Oc1ccc(Br)cc1C=NNC(=S)Nc1ccccc1,cell growth or viability,MTT,,72 h,,0.41 µM
CC(C)c1cccc(C(C)C)c1-n1c(Cl)c(Cl)n(-c2c(C(C)C)cccc2C(C)C)c1=[Se].[Cl][Ag],cell growth or viability,MTT,,72 h,,2.9 µM
Cc1ccc(NC(=O)N/N=C2\CC3(CCN(C)CC3)Oc3ccccc32)cc1,cell growth or viability,MTT,,48 h,,21.4 µM
C[n+]1ccn(CC(O)c2ccccc2)[c]1[Ag-][I] (stereo not drawn),cell growth or viability,MTT,,72 h,,36.2 µM
CC(=O)[O][Pt]([Cl])([Cl])[O]C(=O)CCCc1ccccc1.N.N,cytotoxicity,,,72 h,,3.43 ± 0.14 µM
CC=C(C)C(=O)OC1C(O)C2(CO)C(CC1(C)C)C1=CCC3C4(C)CCC(O)C(C)(CO)C4CCC3(C)C1(C)C(O)C2O (stereo not drawn),cell growth or viability,CCK-8,,48 h,,51.5 µM
CC(C)(C)C12CC(CN3CCN(C(c4ccccc4)c4ccc(Cl)cc4)CC3)(C1)C2 (stereo not drawn),cell growth or viability,resazurin,,,,24.5 µM
COc1cc2ncnc(Nc3ccc(F)c(Cl)c3)c2cc1NC(=O)N/N=C/c1ccc[nH]1,cell growth or viability,MTT,,72 h,,9.31 µM
CC(=NN=c1sc(C(=O)c2ccccc2)nn1-c1ccccc1)c1ccc(S(=O)(=O)N2CCC(C)CC2)cc1,cell growth,MTT,,,,3.3 to 4.3 µM
CCCCn1cc(C(=O)O)c(=O)c2cc(F)c(Nc3ccc(C)cc3)c(N)c21,cell growth or viability,SRB,,72 h,,6.5 µg/mL
CC1(C)c2ccccc2-c2ccc(-c3cn(-c4ccc(-c5cc(-c6ccccn6)nc(-c6ccccn6)c5)cc4)nn3)cc21,cell growth or viability,MTS,,72 h,,1.07 µM
C=C(C)C(O)C(O)CC(C)C1CCC23CC12CCC1C2(C)CCC(O)C(C)(C)C2CC(OC(C)=O)C13C (stereo not drawn),cell growth or viability,MTT,,,,> 10 µM
COc1cc(C(=O)c2[nH]c(N)nc2-c2cccs2)cc(OC)c1OC,cell growth or viability,SRB,,,,0.121 µM
COc1c(O)cc2oc3c(Br)c(O)c(CC=C(C)C)c(O)c3c(=O)c2c1CC=C(C)C,cell growth or viability,,,48 h,,22.2 µM
Cc1cc(N2CCN(C(=O)CN3CCN(C)CC3)CC2)n2ncnc2n1,cell growth or viability,MTT,,,,56 µM
CCCCCCCCCCn1c(-c2cccnc2)nc(-c2ccc(C)cc2)c1-c1ccc(C)cc1,cell growth or viability,SRB,,48 h,,> 100 µM
CC1=NN(C2=NC(=O)CS2)C(c2ccccc2)C1 (stereo not drawn),cell growth or viability,LDH,,,,8.3 µM
O=[C]=[Re-2]1(=[C]=O)(=[C]=O)([O]S(=O)(=O)c2cccc3ccccc23)[n+]2ccc(-c3ccccc3)c3ccc4c(-c5ccccc5)cc[n+]1c4c32,cell growth or viability,resazurin,,72 h,,1.7 µM
CSc1nc(Nc2ccc(/C(C)=N/NC(=O)c3ccccc3)cc2)c(C#N)c(-c2ccccc2)n1,cell growth or viability,MTT,,48 h,,32.2 µM
CCN(CC)c1ccc2c(c1)[O][Pd]([CH2]C#N)[N](C1CCCCC1)c1ncccc1N=C2,cell growth or viability,MTT,,48 h,,38.6 µM
COc1ccc(S(=O)(=O)Nc2ccc(CCCC(=O)O[C@H]3c4cc5c(cc4[C@@H](c4cc(OC)c(OC)c(OC)c4)[C@H]4C(=O)OC[C@@H]43)OCO5)cc2)cc1,cell growth or viability,CCK-8,,24 h,,91 µM
NS(=O)(=O)c1ccc(/N=N/c2ccc(O)c(/C=N/c3nccs3)c2)cc1,cell growth or viability,MTT,,48 h,,9.22 µM
CCCCCCCCCCOc1c(O)cc(C(=O)O[C@@H]2Cc3c(O)cc(O)cc3O[C@@H]2c2cc(O)c(O)c(O)c2)cc1O,cell growth or viability,CCK-8,,24 h,,99 µM
COc1ccc(CNC[C@@](O)(COCc2ccccc2)[C@@H]2CC[C@@H](C)C[C@H]2OCc2ccccc2)cc1,cell growth or viability,MTT,,72 h,,2.1 µM
CS/C(=N/N=C(\C)c1ccc(S(=O)(=O)N2CCC(C)CC2)cc1)SCc1ccccc1,cell growth,MTT,,,,> 30 µM
CC(=O)N[C@H]1C(n2cc([C@@](C)(O)c3cccc(F)c3)nn2)O[C@H](COCc2ccccc2)[C@H](OCc2ccccc2)[C@@H]1OCc1ccccc1 (stereo partly drawn),cell growth or viability,MTS,,72 h,,> 100 µM
CCCCCCCCCCCCCCCOC(=O)/C=C/c1cccc(O)c1,cell viability,MTT,,48 h,serum-free medium,1.1 ± 0.2 µg/mL
O=C(NCCNc1n[n+]([O-])c2ccccc2[n+]1[O-])C(F)(F)F,cytotoxicity,MTT,10% FBS medium,6 h + 18 h,hypoxia 3% O2,29 ± 14 µM
CCCCCCCCC=CCCCCCCCCn1c(-c2cccnc2)nc(-c2ccc(C)cc2)c1-c1ccc(C)cc1,cell growth or viability,SRB,,24 h,,> 100 µM
CCOc1cccc(/C=N/CCNc2ccccc2)c1O,cell growth or viability,MTT,,48 h,,155 µM
COc1cc(/C=N/NC(=O)c2cc3cc(Nc4nccc(-c5cccnc5)n4)ccc3[nH]2)cc(OC)c1,cell growth or viability,MTT,,48 h,,2.84 µM
Cc1c(C(=O)NNC(=O)Nc2ccc(Cl)cc2)nnn1Cc1nc2ccccc2[nH]1,,,,48 h,,21.6 ± 1.9 µM
C#CCOCC1=C(C(=O)OCC)C(c2cccc(Cl)c2)N2C(=N1)Sc1ccccc12 (stereo not drawn),cell growth or viability,MTT,,,,0.055 µM
O=C(CCc1nc2cc(Cl)ccc2[nH]c1=O)Nc1ccc(O)cc1,cell growth or viability,MTT,,,,3.95 µM
NS(=O)(=O)c1ccc(/N=N/c2ccc(O)c(/C=N/c3cc(Cl)ccc3O)c2)cc1,cell growth or viability,MTT,,72 h,,5 µM
N=C(N)NCCC[C@@H](N)C(=O)N[C@@H](CC(=O)N[C@H](Cc1ccccc1)C(=O)N[C@H](CC(=O)O)C(=O)O)c1ccc2ccccc2c1,cell growth or viability,ATP luminescence,,72 h,,> 100 µM
NC(=S)NNC(=O)c1cc2ccc(O)cc2oc1=O,cell growth or viability,SRB,,72 h,,4.5 µM
COc1ccc(-c2noc(NC(=O)c3cccc(C(F)(F)F)c3)c2C#N)c(OC)c1,cell growth or viability,MTT,,72 h,,≥ 100 µM
CN(C)C(=O)C1CN1S(=O)(=O)c1cccc2cc(N(C)C)ccc12 (stereo not drawn),cell growth or viability,MTT,,48 h,,4.8 µM
COc1ccc2cc3[n+](cc2c1OCc1cn(Cc2cccc(Br)c2)nn1)CCc1cc2c(cc1-3)OCO2,cell growth or viability,MTT,,,,66.4 µM
CC(=O)[O-].O.O.O.O.[Ni+2].[O-]c1ccc(Br)cc1C=NCCN1CCOCC1,cell viability,MTT,,72 h,,24.1 µg/mL
COc1cc(/C=C/C(=O)/C=C(O)/C=C/c2ccc(OCC(=O)N3CCOCCOCCOCCOCC3)c(OC)c2)ccc1OCC(=O)N1CCOCCOCCOCCOCC1,cell growth or viability,SRB,,,,8.4 µM
Nc1ncnc2c1sc1sc3c(N)ncnc3c12,cell growth or viability,MTT,,,,4.92 µM
C=C(C)[C@@H]1CC[C@]2(COC(=O)CCC(=O)O)CC[C@]3(C)[C@H](CC[C@@H]4[C@@]5(C)CC[C@H](OC(=O)CCC(=O)O)C(C)(C)[C@@H]5CC[C@]43C)[C@@H]12,cell growth or viability,SRB,,72 h,,7.26 µg/mL
O=C(N/C(=C/c1ccc([N+](=O)[O-])cc1)c1nc2ccccc2c(=O)o1)c1ccccc1,cell growth or viability,MTT,,48 h,,25.4 µM
CSc1nc(Nc2cccc(/C(C)=N/NC(=O)c3ccc(O)cc3)c2)c(C#N)c(-c2ccccc2)n1,cell growth or viability,MTT,,48 h,,26.1 µM
COc1ccc2cc3[n+](cc2c1OCc1cn(Cc2ccc([N+](=O)[O-])cc2)nn1)CCc1cc2c(cc1-3)OCO2,cell growth or viability,MTT,,,,206 µM
COc1ccccc1CNC[C@@](O)(COCc1ccccc1)[C@@H]1CC[C@@H](C)C[C@H]1OCc1ccccc1,cell growth or viability,MTT,,72 h,,1.6 µM
Cc1cccc2c1NC(=O)C21C2=C(COC2=O)NC2=C1C(=O)c1ccccc1C2=O (stereo not drawn),cell growth or viability,MTT,,72 h,,18.8 µM

# Some of these lines once more:
SMILES,effect on,method,medium,time,setting,IC50
Cc1cc(N2CCN(C(=O)CN3CCN(C)CC3)CC2)n2ncnc2n1,cell growth or viability,MTT,,,,56 µM
CCCCCCCCCCn1c(-c2cccnc2)nc(-c2ccc(C)cc2)c1-c1ccc(C)cc1,cell growth or viability,SRB,,48 h,,> 100 µM
COc1cc2ncnc(Nc3ccc(F)c(Cl)c3)c2cc1NC(=O)N/N=C/c1ccc[nH]1,cell growth or viability,MTT,,72 h,,9.31 µM
COc1ccc(S(=O)(=O)Nc2ccc(CCCC(=O)O[C@H]3c4cc5c(cc4[C@@H](c4cc(OC)c(OC)c(OC)c4)[C@H]4C(=O)OC[C@@H]43)OCO5)cc2)cc1,cell growth or viability,CCK-8,,24 h,,91 µM
CC(=O)[O][Pt]([Cl])([Cl])[O]C(=O)CCCc1ccccc1.N.N,cytotoxicity,,,72 h,,3.43 ± 0.14 µM
Oc1ccc(Br)cc1C=NNC(=S)Nc1ccccc1,cell growth or viability,MTT,,72 h,,0.41 µM
CN(C)C(=O)C1CN1S(=O)(=O)c1cccc2cc(N(C)C)ccc12 (stereo not drawn),cell growth or viability,MTT,,48 h,,4.8 µM
[NH2][Pt]1([NH2])([Cl])([O]C(=O)C(F)(F)F)[O]C(=O)C2(CC(=O)C2)C(=O)[O]1,cell growth or viability,MTT,,,,22.6 µM
